Results from different studies.
Lines come from different studies, so protocols differ. ± gives the spread as reported.
UniProt Q9UJZ1, sequence (whole entry, looked up): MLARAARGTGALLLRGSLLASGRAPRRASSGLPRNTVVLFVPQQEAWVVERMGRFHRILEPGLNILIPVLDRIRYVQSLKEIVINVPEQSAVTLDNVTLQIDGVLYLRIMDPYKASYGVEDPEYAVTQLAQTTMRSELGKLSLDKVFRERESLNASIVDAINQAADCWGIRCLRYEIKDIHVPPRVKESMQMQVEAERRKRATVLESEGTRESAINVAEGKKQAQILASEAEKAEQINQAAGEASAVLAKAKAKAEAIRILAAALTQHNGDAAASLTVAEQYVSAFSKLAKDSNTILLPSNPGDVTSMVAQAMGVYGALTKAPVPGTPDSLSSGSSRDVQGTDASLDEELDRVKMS

| Compound | target or system | test | test system | conditions | scale | quantity | value |
| --- | --- | --- | --- | --- | --- | --- | --- |
| COc1c(CCC[P+](c2ccccc2)(c2ccccc2)c2ccccc2)cc2c(c1OC)OCO2.[I-] | OVCAR-8 | SRB |  |  |  | TGI | > -4 log M |
| CC(C)N1CCC(NC2CCN(c3cccc(-c4cc5cc(F)ccc5[nH]4)c3)CC2)CC1 | SF-268 |  |  |  |  | CC50 | 6.04 µM |
| COc1ccc([C@H]2c3[nH]c4ccc(Cl)cc4c3CCN2C(=O)Oc2ccc(Cl)cc2)cc1 | HUVEC and PBMC co-culture | BioMAP SAg, refers to: CD40 |  | 0.1 µM, 24 h, together with: TCR ligands |  | inhibition | 29% |
| COc1ccc2c(c1)[nH]c1c(C)nccc12 | DU-145 | bisulfite pyrosequencing, refers to: RASSF1A promoter CpG site 15 |  | 10 µM, 16 h |  | DNA methylation | 97.9% |
| Oc1cc(Cl)ccc1Oc1ccc(Cl)cc1Cl | HepG2 | protein level, refers to: TNFAIP3 (A20) |  | 1 h, distribution mode 2 |  | point of departure | 28.8 µM |
| S=P1(c2ccccc2)CCCCC1 | SW480 | MTT |  | 72 h | relative to: IC50 HaCaT over IC50 SW480 | selectivity index | 1 |
| Nc1ncc(-c2nc(N3CCOCC3)nc(N3CCOCC3)n2)c(C(F)F)n1 | RPMI-7951 |  |  | 72 h |  | GI50 | 135 nM |
| CCN(CC)c1ccc(C=NNC(=O)CSc2nc3ccccc3c(=O)n2Cc2ccc(S(N)(=O)=O)cc2)c(O)c1 | SF-539 | NCI five-dose screen |  |  |  | CC50 | > 100 µM |
| CN1CCN(C2(CNC3CCN(c4cccc(-c5cc6cc(F)ccc6[nH]5)c4)CC3)CCC2)CC1 | OVCAR-8 |  |  |  |  | GI50 | 2020 nM |
| Cc1cnc2ccc3c(nc(N)n3C)c2n1 | BALB/c 3T3 |  |  | 5 µM | relative to: solvent control | relative colony forming efficiency | 99 ± 4% |
| O=c1cc(-c2ccc(O)cc2)oc2cc(O)cc(O)c12 | SH-SY5Y Aβ-GFP cells, TRKB shRNA |  |  | 5 µM |  | neurite length | 27.4 to 31.1 µm |
| OC(c1ccc(-c2ccc(CN3CCN(Cc4ccncc4)CC3)cc2)c(F)c1)(C(F)(F)F)C(F)(F)F | mouse Th17 cells | qRT-PCR, refers to: Il17a mRNA |  | 100 nM, 4 days |  | inhibition | 50% |
| C[C@H]1CN(c2n[nH]c3nc(N[C@H]4CC[C@H](NS(=O)(=O)CCC(F)(F)F)CC4)ncc23)CCO1 | Stomatin-like protein 2, mitochondrial (Homo sapiens, UniProt Q9UJZ1) | biochemical |  |  |  | IC50 | ≥ 20000 nM |
| Cn1cc(Nc2nccc(-c3ccc4c(c3)CN(C3COC3)CC[C@H]4NC(=O)c3cn(C(C)(C)C)nn3)n2)cn1 | mouse splenic B cells | refers to: EGF signalling |  | 30 mg/kg, IgD-activated in vivo | relative to: vehicle, direction not given | pathway activation z-score | 3.32 |
| COc1cc(CCC[P+](c2ccccc2)(c2ccccc2)c2ccccc2)c(OC)c2c1OCO2.[I-] | SF-539 | SRB |  |  |  | LC50 | -4.09 log M |
| Cn1cncc1C1=CN(c2ncnc3[nH]cnc23)CCS1 | SF-539 |  |  | CNS cancer |  | CC50 | 100 µM |
| COc1c(C)c2c(c(O)c1C/C=C(\C)CCC(=O)O)C(=O)OC2 | 22Rv1 | cell proliferation | prostate cancer |  |  | IC50 | 1070 nM |
| CC(c1ccccc1)(c1ccc(O)cc1)c1ccc(O)cc1 | HepG2 spheroids | Hoechst flow cytometry |  | 10 µM, 96 h |  | G1 phase cells | 67.3 ± 3.03% |
| CC(=O)O[C@H]1C[C@H](O[C@H]2[C@@H](O)C[C@H](O[C@H]3[C@@H](O)C[C@H](O[C@H]4CC[C@@]5(C)[C@H](CC[C@@H]6[C@@H]5C[C@@H](O)[C@]5(C)[C@@H](C7=CC(=O)OC7)CC[C@]65O)C4)O[C@@H]3C)O[C@@H]2C)O[C@H](C)[C@H]1O[C@@H]1O[C@H](CO)[C@@H](O)[C@H](O)[C@H]1O | MYBPC3 iPSC cardiomyocytes | plate-normalised |  | concentration not given, 24 h, hit retest |  | MyBP-C level | 8.9% |
| O=S(=O)(c1ccc(O)cc1)c1ccc(O)cc1 | HepG2 spheroids | Hoechst flow cytometry |  | 40 µM, 24 h |  | S phase cells | 7.58 ± 1.58% |
| COc1ccc(OC)c(N2C(=O)NC(=O)/C(=C\c3ccc([N+](=O)[O-])s3)C2=O)c1 | LDR | silenced CMV-GFP reporter derepression, qHTS |  |  |  | efficacy | 50% |

Excerpt of the above:
| Compound | target or system | test | test system | conditions | scale | quantity | value |
| --- | --- | --- | --- | --- | --- | --- | --- |
| Cn1cc(Nc2nccc(-c3ccc4c(c3)CN(C3COC3)CC[C@H]4NC(=O)c3cn(C(C)(C)C)nn3)n2)cn1 | mouse splenic B cells | refers to: EGF signalling |  | 30 mg/kg, IgD-activated in vivo | relative to: vehicle, direction not given | pathway activation z-score | 3.32 |
